# Results of several laboratories.
# Lines come from different studies, so protocols differ. Numbers after ± are the reported error.
Structure (SMILES),tested on,assay,test system,setting,scale,quantity,result
O=c1ccc2ccccc2o1,HepG2,item: cell count,,"concentration not given, 24 h",,probability of response,0.35%
O=C(NCc1ccccc1Cl)C1CCCN(Cc2cccc(-c3ccc(F)cc3F)c2)C1 (stereo not drawn),Vero-E6,CellTiter-Glo ATP,,"72 h, first round 5-point","baseline: DMSO 0%, hyamine -100%, more negative, more toxic",maximum response,-14.1%
CCCC(C(=O)c1ccc2c(c1)OCO2)N1CCCC1.Cl (racemic),,,rat,"subcutaneous, 4 mg/kg, 40 min",,brain-to-plasma ratio,11.7 ± 1
O=C1c2c(O)c(=O)ccn2N([C@@H]2c3ccccc3SCc3c2ccc(F)c3F)[C@@H]2COCCN12,,,BALB/c mouse,"subcutaneous, 1 mg/kg q24h",,trough concentration,0.751 ng/mL
CC(=O)O[C@]1(C(C)=O)CC[C@H]2[C@@H]3C=C(C)C4=CC(=O)CC[C@]4(C)[C@H]3CC[C@@]21C,human coronavirus OC43,virus-induced cell killing,MRC-5,screen,,maximum inhibition,4.18%
O=C(c1ccc(F)c(F)c1Nc1ccc(I)cc1F)N1CC(O)([C@@H]2CCCCN2)C1,,,patients aged 2 to 6 years,"oral, dose not given",,related AE leading withdrawal,0%
COc1cccc(-c2n[nH]c(SCc3ccccn3)n2)c1OC,Salmonella typhimurium,"Ames test, preincubation",TA1537,"0.13 mg/plate, without S9",,revertant colonies per plate,6
O=C(CCc1ccc(CC2CCN(Cc3c[nH]c4ccccc34)CC2)cc1)N1CCCC1,Vero-E6,CellTiter-Glo ATP,,"concentration not given, 72 h, second round 5-point","baseline: DMSO 0%, hyamine -100%, more negative, more toxic",cytotoxicity efficacy,0%
CC(=O)N1CCC(C(=O)N2CCN3C(=O)c4cc(-c5ccccc5)ccc4NC(=O)C3C2)CC1 (stereo not drawn),Salmonella typhimurium,,TA1535,500 µg/plate,,revertants per plate,18.5
C#Cc1cccc(Nc2ncnc3cc(OCCOC)c(OCCO)cc23)c1,human coronavirus OC43,virus-induced cell killing,MRC-5,screen,,maximum inhibition,4.84%
COc1cc2c(Oc3ccc4[nH]c(C)cc4c3F)ccnc2cc1OCC1(N)CC1,,,paediatric refractory sarcoma patients,12 mg,,Myalgia incidence,0%
Cc1ccc2nc(C3CCCN(Cc4cccc(-c5cccnc5)c4)C3)[nH]c(=O)c2c1 (stereo not drawn),Vero-E6,CellTiter-Glo ATP,,"72 h, second round 5-point","baseline: DMSO 0%, hyamine -100%, more negative, more toxic",maximum response,-1.41%
CC(=O)c1c(C)c2cnc(Nc3ccc(C4CCN(CCS(C)(=O)=O)CC4)cn3)nc2n(C2CCCC2)c1=O,,,"human, plasma","oral, 75 mg twice daily, day 21, multiple doses, added: letrozole",,AUC(0-inf),1220 ng·h/mL
COc1cccc(CNC(=O)C2CCN(Cc3cc4ccccc4n3Cc3ccccc3)CC2)c1OC,Vero-E6,CellTiter-Glo ATP,,"concentration not given, 72 h, retest 8-point duplicates","baseline: DMSO 0%, hyamine -100%, more negative, more toxic",cytotoxicity efficacy,0%
CO[C@H]1C[C@@H]2CC[C@@H](C)[C@@](O)(O2)C(=O)C(=O)N2CCCC[C@H]2C(=O)O[C@H]([C@H](C)C[C@@H]2CC[C@@H](OC(=O)NCCOCCOCCOCCOCCOCCOCCOCCOCCC(=O)N3CCc4cc(Cn5nc(-c6ccc7oc(N)nc7c6)c6c(N)ncnc65)ccc4C3)[C@H](OC)C2)C[C@@H](O)[C@H](C)/C=C(\C)[C@@H](O)[C@@H](OC)C(=O)[C@H](C)C[C@H](C)/C=C/C=C/C=C/1C,,,patients with advanced solid tumours,"intravenous, 12 mg weekly, any grade",,AE leading to discontinuation,25%
[Cl-].[Cl-].[Pt+2].[Ru+2].c1ccc(-c2nc3ccccc3nc2-c2ccccn2)nc1.c1cnc2c(c1)ccc1cccnc12.c1cnc2c(c1)ccc1cccnc12,Danio rerio,,embryos,"75 µM, 48 h",,hatching rate,3.33 ± 3.7%
CN(C)c1cccc(C(=O)NCC2CCN(c3cc(-c4ccc(Cl)cc4)n[nH]3)CC2)c1,Vero-E6,CellTiter-Glo ATP,,"72 h, retest 8-point duplicates","baseline: DMSO 0%, hyamine -100%, more negative, more toxic",maximum response,-21.7%
CN1CC[C@@H](c2c(O)cc(O)c3c(=O)cc(-c4ccc(C(F)(F)F)cc4Cl)oc23)[C@@H]1CO,,,"human, relapsed/refractory hematologic malignancies",up to 200 mg,,tolerability,not toxic

# A few entries again:
Structure (SMILES),tested on,assay,test system,setting,scale,quantity,result
COc1cc2c(Oc3ccc4[nH]c(C)cc4c3F)ccnc2cc1OCC1(N)CC1,,,paediatric refractory sarcoma patients,12 mg,,Myalgia incidence,0%
Cc1ccc2nc(C3CCCN(Cc4cccc(-c5cccnc5)c4)C3)[nH]c(=O)c2c1 (stereo not drawn),Vero-E6,CellTiter-Glo ATP,,"72 h, second round 5-point","baseline: DMSO 0%, hyamine -100%, more negative, more toxic",maximum response,-1.41%
CC(=O)c1c(C)c2cnc(Nc3ccc(C4CCN(CCS(C)(=O)=O)CC4)cn3)nc2n(C2CCCC2)c1=O,,,"human, plasma","oral, 75 mg twice daily, day 21, multiple doses, added: letrozole",,AUC(0-inf),1220 ng·h/mL
